Assay results gathered from unrelated publications.
Several values in a cell are separate wells, animals, samples, runs or records.
Target: Bone morphogenetic protein receptor type-1A (BMPR1A, Homo sapiens, UniProt P36894)

For `CCN1CCN(Cc2ccc(C(=O)Nc3ccc(C)c(NCc4cnc5[nH]ccc5c4OC)c3)cc2C(F)(F)F)CC1`, the remaining binding was 100% (binding, competition with immobilised ligand; 1 µM).
`N[C@H]1CC[C@H](Nc2nccc(-c3cccnc3Oc3ccc(NC(=O)NC4CC4)c4ccccc34)n2)CC1` — result for “log2 LFQ intensity”: 21.7 and 19.9 and 19.6 (kinobead competition pulldown; HEK293/HCT116 lysate mixture; 10 µM, 1 h, 4 °C; lower = stronger competition).
For `CNC1C[S+]2CC[S+]3CC[S+](C1)[Ru-4]321([N]=C=S)[n]2c3ccc(OC)cc3c3c4c(c5cc(F)c[n+]1c5c32)C(=O)NC4=O` (stereo not shown), the remaining binding was 90% (KinomeScan; 0.1 µM; reference: untreated).
The inhibition of `C=CC(=O)N1Cc2nc(-c3cc(-c4cc(Cl)cnc4Cl)c(F)cc3F)n(-c3ccncn3)c2C1` is reported as -2.2% (cell-free assay, inhibitor; 1 µM).
`COc1c(Cl)cccc1Nc1c(-c2ccncc2C#C[C@@]2(C)CCCN2C(=O)/C=C/CN(C)C)[nH]c2c1C(=O)NCC2` gave a remaining binding of 85% (binding, competition with immobilised ligand; 3 µM).
`COc1cc(Nc2nccc(-c3cnn4nc(OC)ccc34)n2)cc(C(F)(F)F)c1` gave a remaining binding of 100% (binding, competition with immobilised ligand; 1 µM).
`Nc1ncc(-c2cc(-c3cnn(CC(F)(F)F)c3)ncc2F)nc1C(=O)NC1CNCC(F)C1` (stereo not shown) gave a remaining activity of 112% (enzyme activity; 1 µM; reference: DMSO control).
With `C=CC(=O)N1CCc2ccc(-n3c(=O)ccc4cnc5ccc(-c6cnn(C)c6)cc5c43)cc21` the remaining binding was 60% (KINOMEscan; 1 µM; reference: DMSO control).
The remaining binding of `Nc1ncc2c(n1)-c1c([nH]c3ccc(C4=CCOCC4)cc13)CCC2` is reported as 70% (binding, competition with immobilised ligand; 1 µM).
`C=CC(=O)N1CCCC(n2c(=O)c3ncccc3n(Cc3ccc(Oc4ccccc4)cc3)c2=O)C1` (stereo not shown) has a remaining binding of 90% (cell-free assay, competition with immobilised ligand; 1 µM).
`COc1cc(Nc2nc(C)cc(-c3cnn4nc(OC)ccc34)n2)cc(C(F)(F)F)c1` gave a remaining activity of 100% (inhibitor; 1 µM; reference: control).
`CNC(=O)C1CCN(c2cc(C)c(F)cc2NC(=O)c2ccc(-c3cc(O)ccc3C)c(C)c2)CC1` gave a remaining binding of 100% (binding, competition with immobilised ligand; 1 µM).
`Cc1ccc(-c2c(/C=C(\C#N)C(=O)NC(C)C)n(CCCO)c3ncnc(N)c23)cc1` gave a remaining binding of 72% (binding, competition with immobilised ligand; 1 µM).
For `Cc1cnc2nc1Nc1cccc(c1)COC/C=C/COCc1cc(ccc1OCCN1CCOCC1)N2`, the remaining binding was 98% (binding; 0.1 µM).
`CC(C)=CC1OC(C)(C)C2C=C3C(=O)C(Cl)=CC(O)C3C3C(O)C4OC4C(=O)C132` (stereo not shown) has a remaining binding of 95% (cell-free assay, competition with immobilised ligand; 10 µM).
`CN1CCN(Cc2ccc(-c3ccc(CO[C@H]4CCC[C@@H]4NC(=O)c4cc(-c5cnn(C)c5)cnc4N)cc3)cc2)CC1` has an inhibition of -6% (enzyme activity, inhibitor; 0.1 µM).

A few entries again:
For `CNC1C[S+]2CC[S+]3CC[S+](C1)[Ru-4]321([N]=C=S)[n]2c3ccc(OC)cc3c3c4c(c5cc(F)c[n+]1c5c32)C(=O)NC4=O` (stereo not shown), the remaining binding was 90% (KinomeScan; 0.1 µM; reference: untreated).
